Assay results collected from several papers.
Compare with care: the assays were run in different laboratories. ± marks the error that the study gave.

The Cmax of `CS(=O)(=O)n1cc2c(n1)CN([C@H]1CO[C@H](c3cc(F)ccc3F)[C@@H](N)C1)C2` is reported as 278 nM (healthy Japanese men, plasma; oral, 10 mg once weekly, day 15).
With `COc1c(OCCCN2CCOCC2)ccc2c1N=C(NC(=O)c1cnc(N)nc1)N1CCN=C21` the Cmax was 537 ng/mL (LC-MS/MS; patients with solid tumours, expansion cohort, plasma; intravenous, 0.8 mg/kg, cycle 1 day 1, geometric mean).
For `CCCN1CC(c2ccc(S(C)(=O)=O)cc2)=C(c2ccc(C)cc2)C1=O`, the Cmax was 10.8 ng/mL (healthy Chinese, non-elderly, plasma; oral, 100 mg).
With `CCOc1cc([C@@H](CS(C)(=O)=O)N2C(=O)c3cccc(NC(C)=O)c3C2=O)ccc1O[C@@H]1O[C@H](C(=O)O)[C@@H](O)[C@H](O)[C@H]1O` the Cmax was 225 ng/mL (mild renal impairment patients, plasma; oral, 30 mg of apremilast).
For `CCCC[C@H](NC(C)=O)C(=O)N[C@H]1CCC(=O)NC[C@@H](C(=O)N[C@@H](Cc2c[nH]c3ccccc23)C(N)=O)NC(=O)[C@H](CCCNC(=N)N)NC(=O)[C@@H](Cc2ccccc2)NC(=O)[C@H](Cc2c[nH]cn2)NC1=O`, the Cmax was 58.5 ng/mL (healthy volunteers, plasma; subcutaneous, 3.0 mg once daily, day 7, steady state mean).
With `Cc1ccc(NC(=O)c2ccc(CN3CCN(C)CC3)cc2)cc1Nc1nccc(-c2cncc(-c3oncc3C)c2)n1` the Cmax was 6490 ng/mL (healthy volunteers, plasma; oral, 200 mg once daily, day 1, 7-day dosing, mean).
`N[C@]1(C(=O)O)[C@H]2[C@@H](C[C@@H]1F)[C@@H]2C(=O)O` has a Cmax of 1.24 ng/mL (healthy subjects, both sexes, CSF; oral, 10 mg TS-134 single dose, fed, mean).
`COc1ccc2c3c1O[C@H]1C[C@@H](OC(=O)c4ccccc4)C=C[C@@]31CCN(C)C2` gave a Cmax of 15.2 ng/mL (healthy young men, plasma; intranasal, 5.5 mg, single dose).
`COc1cccc(N2CCN(C3=Nc4c(F)cccc4[C@H](CC(=O)O)N3c3cc(C(F)(F)F)ccc3OC)CC2)c1` gave a Cmax of 57200 ± 7620 ng/mL (UHPLC-MS/MS; healthy women, plasma; intravenous infusion, 960 mg single dose, 60 min infusion, HPβCD formulation).
`CN1CCN(c2ccc3nc(-c4c(N)c5c(F)cccc5[nH]c4=O)[nH]c3c2)CC1` has a Cmax of 221 ng/mL (patients, plasma; oral, 300 mg daily 5 days on 2 off, day 19, median, together with: gemcitabine and capecitabine).
`C[C@]12C=CC(=O)C=C1CC[C@@H]1[C@@H]2[C@@H](O)C[C@@]2(C)[C@H]1C[C@H]1O[C@@H](C3CCCCC3)O[C@]12C(=O)CO` gave a Cmax of 0.19 ng/mL (children with asthma, serum; inhaled, 160 µg ciclesonide, day 7, geometric LS mean, per-protocol, spacer).
The Cmax of `CC(C)=CCC[C@](C)(O[C@@H]1O[C@H](CO)[C@@H](O)[C@H](O)[C@H]1O)[C@H]1CC[C@]2(C)[C@@H]1[C@H](O)C[C@@H]1[C@@]3(C)CC[C@H](O[C@@H]4O[C@H](CO)[C@@H](O)[C@H](O)[C@H]4O[C@@H]4O[C@H](CO)[C@@H](O)[C@H](O)[C@H]4O)C(C)(C)[C@@H]3CC[C@]12C` is reported as 1.53 ± 2.18 ng/mL (LC-MS/MS; healthy male volunteers, serum; oral, 3 g red ginseng).
With `CO/N=C1\C[C@]2(C[C@@H]3C[C@@H](C/C=C(\C)C[C@@H](C)/C=C/C=C4\CO[C@@H]5[C@H](O)C(C)=C[C@@H](C(=O)O3)[C@]45O)O2)O[C@H](/C(C)=C/C(C)C)[C@H]1C` the Cmax was 21.9 ± 15.8 ng/mL (parasitized Corriedale lambs, plasma; oral, 0.2 mg/kg, together with: closantel 10 mg/kg oral).
With `COc1ccc2[nH]c([S+]([O-])Cc3ncc(C)c(OC)c3C)nc2c1` (centres unmarked) the Cmax was 310 ± 129 ng/mL (healthy Chinese, CYP2C19 *3/*17, plasma; oral, 20 mg single dose).
`C=C(C)[C@@H]1CC[C@]2(NCCN3CCS(=O)(=O)CC3)CC[C@]3(C)[C@H](CC[C@@H]4[C@@]5(C)CC=C(C6=CC[C@@](CF)(C(=O)O)CC6)C(C)(C)[C@@H]5CC[C@]43C)[C@@H]12` has a Cmax of 230 ng/mL (HIV-1-positive treatment-naive adults, plasma; oral, 40 mg single dose, day 1, with food).
`O=C(O)C[C@H](O)C[C@H](O)/C=C/c1c(C2CC2)nc2ccccc2c1-c1ccc(F)cc1` gave a Cmax of 86.2 ng/mL (healthy Chinese male volunteers, plasma; oral, 2 mg once daily, multiple dose).
The Cmax of `COc1cc2c3c(n(CCCN4CCOCC4)c(=O)c2cc1OC)-c1cc2c(cc1C3=O)OCO2` is reported as 1130 ng/mL (patients, plasma; intravenous infusion, 40 mg/m^2 daily over 1 h, cycle 1 day 5).

Excerpt of the above:
For `CCCC[C@H](NC(C)=O)C(=O)N[C@H]1CCC(=O)NC[C@@H](C(=O)N[C@@H](Cc2c[nH]c3ccccc23)C(N)=O)NC(=O)[C@H](CCCNC(=N)N)NC(=O)[C@@H](Cc2ccccc2)NC(=O)[C@H](Cc2c[nH]cn2)NC1=O`, the Cmax was 58.5 ng/mL (healthy volunteers, plasma; subcutaneous, 3.0 mg once daily, day 7, steady state mean).
With `Cc1ccc(NC(=O)c2ccc(CN3CCN(C)CC3)cc2)cc1Nc1nccc(-c2cncc(-c3oncc3C)c2)n1` the Cmax was 6490 ng/mL (healthy volunteers, plasma; oral, 200 mg once daily, day 1, 7-day dosing, mean).
